Measurements of several laboratories.
Each line is one published result; not all experiments were run side by side. Values joined by “and” are separate records of one study, mostly repeats; a detail may differ. pEC50, pIC50, pKi: −log10 of the molar value.
PIK3CB: Phosphatidylinositol 4,5-bisphosphate 3-kinase catalytic subunit beta isoform (PIK3CB, Homo sapiens, UniProt P42338)
UniProt P42338, sequence (whole entry, looked up): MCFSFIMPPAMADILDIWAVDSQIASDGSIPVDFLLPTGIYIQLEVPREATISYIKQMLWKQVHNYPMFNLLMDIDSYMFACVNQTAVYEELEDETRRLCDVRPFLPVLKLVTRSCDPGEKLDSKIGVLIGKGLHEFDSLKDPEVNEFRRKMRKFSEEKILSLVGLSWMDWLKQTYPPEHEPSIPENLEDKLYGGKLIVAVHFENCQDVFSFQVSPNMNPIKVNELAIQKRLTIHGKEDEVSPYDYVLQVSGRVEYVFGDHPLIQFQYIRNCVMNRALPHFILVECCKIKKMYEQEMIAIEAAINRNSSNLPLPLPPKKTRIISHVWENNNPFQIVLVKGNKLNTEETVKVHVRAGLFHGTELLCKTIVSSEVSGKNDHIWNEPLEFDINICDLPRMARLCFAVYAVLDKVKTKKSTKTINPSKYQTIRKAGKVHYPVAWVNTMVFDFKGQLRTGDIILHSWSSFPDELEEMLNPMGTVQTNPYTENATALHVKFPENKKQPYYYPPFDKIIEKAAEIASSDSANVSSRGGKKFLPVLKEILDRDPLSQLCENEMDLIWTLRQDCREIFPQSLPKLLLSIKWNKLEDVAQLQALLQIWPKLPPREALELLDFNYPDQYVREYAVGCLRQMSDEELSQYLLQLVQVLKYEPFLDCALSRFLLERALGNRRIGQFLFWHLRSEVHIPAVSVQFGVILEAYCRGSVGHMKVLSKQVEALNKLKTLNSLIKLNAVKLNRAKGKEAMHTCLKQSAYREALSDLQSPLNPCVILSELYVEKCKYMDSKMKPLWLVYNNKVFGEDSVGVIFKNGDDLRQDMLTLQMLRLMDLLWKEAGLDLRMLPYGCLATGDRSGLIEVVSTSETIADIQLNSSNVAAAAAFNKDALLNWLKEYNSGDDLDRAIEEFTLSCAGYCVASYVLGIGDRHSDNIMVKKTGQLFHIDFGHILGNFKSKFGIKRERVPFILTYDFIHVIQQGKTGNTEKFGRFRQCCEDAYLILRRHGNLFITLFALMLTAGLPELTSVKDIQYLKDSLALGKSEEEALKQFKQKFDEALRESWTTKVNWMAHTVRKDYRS
DRD3: D(3) dopamine receptor (DRD3, Homo sapiens, UniProt P35462)
UniProt P35462, sequence (whole entry, looked up): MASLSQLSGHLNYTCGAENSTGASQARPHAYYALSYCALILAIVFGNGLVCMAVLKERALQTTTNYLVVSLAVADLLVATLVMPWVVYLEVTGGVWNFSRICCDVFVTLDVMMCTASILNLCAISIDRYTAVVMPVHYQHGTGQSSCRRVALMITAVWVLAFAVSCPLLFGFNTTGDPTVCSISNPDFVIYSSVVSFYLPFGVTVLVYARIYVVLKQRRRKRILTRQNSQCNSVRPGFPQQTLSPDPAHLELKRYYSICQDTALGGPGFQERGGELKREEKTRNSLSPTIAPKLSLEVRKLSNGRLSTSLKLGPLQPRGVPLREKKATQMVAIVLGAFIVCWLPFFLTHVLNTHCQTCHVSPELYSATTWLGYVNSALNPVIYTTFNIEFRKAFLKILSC
HDAC6: Protein deacetylase HDAC6 (HDAC6, Homo sapiens, UniProt Q9UBN7)
CES2: Cocaine esterase (CES2, Homo sapiens, UniProt O00748)
UniProt O00748, sequence (whole entry, looked up): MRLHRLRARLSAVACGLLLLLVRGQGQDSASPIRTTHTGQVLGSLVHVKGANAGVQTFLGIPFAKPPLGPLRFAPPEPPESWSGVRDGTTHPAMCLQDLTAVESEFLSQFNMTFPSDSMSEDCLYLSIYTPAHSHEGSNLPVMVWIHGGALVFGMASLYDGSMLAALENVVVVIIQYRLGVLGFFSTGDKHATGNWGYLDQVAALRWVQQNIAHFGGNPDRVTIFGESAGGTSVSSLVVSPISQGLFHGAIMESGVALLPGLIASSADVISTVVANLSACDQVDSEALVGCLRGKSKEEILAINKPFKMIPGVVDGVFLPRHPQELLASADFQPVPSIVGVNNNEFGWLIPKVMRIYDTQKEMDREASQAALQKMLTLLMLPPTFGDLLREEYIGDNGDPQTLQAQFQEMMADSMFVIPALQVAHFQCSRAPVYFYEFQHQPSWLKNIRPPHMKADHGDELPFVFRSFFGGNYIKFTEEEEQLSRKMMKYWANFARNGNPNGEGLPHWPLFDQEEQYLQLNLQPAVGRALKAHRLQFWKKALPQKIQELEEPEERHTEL
PARP2: Poly [ADP-ribose] polymerase 2 (PARP2, Homo sapiens, UniProt Q9UGN5)
UniProt Q9UGN5, sequence (whole entry, looked up): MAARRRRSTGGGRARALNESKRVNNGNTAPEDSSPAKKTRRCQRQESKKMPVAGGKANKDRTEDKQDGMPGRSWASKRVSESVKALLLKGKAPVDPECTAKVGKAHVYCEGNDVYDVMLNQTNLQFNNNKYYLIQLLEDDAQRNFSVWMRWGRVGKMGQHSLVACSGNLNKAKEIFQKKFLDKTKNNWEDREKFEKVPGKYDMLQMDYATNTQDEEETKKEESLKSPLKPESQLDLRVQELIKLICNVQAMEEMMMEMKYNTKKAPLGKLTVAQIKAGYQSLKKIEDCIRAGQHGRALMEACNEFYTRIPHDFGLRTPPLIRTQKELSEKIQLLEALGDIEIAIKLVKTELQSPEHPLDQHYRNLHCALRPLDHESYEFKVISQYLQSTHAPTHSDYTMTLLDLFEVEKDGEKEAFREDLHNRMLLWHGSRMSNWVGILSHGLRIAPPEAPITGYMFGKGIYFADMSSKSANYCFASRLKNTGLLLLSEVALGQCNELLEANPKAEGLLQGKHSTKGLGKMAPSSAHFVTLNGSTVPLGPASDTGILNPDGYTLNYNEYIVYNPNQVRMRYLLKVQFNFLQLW
PARP10: Protein mono-ADP-ribosyltransferase PARP10 (PARP10, Homo sapiens, UniProt Q53GL7)
UniProt Q53GL7, sequence (whole entry, looked up): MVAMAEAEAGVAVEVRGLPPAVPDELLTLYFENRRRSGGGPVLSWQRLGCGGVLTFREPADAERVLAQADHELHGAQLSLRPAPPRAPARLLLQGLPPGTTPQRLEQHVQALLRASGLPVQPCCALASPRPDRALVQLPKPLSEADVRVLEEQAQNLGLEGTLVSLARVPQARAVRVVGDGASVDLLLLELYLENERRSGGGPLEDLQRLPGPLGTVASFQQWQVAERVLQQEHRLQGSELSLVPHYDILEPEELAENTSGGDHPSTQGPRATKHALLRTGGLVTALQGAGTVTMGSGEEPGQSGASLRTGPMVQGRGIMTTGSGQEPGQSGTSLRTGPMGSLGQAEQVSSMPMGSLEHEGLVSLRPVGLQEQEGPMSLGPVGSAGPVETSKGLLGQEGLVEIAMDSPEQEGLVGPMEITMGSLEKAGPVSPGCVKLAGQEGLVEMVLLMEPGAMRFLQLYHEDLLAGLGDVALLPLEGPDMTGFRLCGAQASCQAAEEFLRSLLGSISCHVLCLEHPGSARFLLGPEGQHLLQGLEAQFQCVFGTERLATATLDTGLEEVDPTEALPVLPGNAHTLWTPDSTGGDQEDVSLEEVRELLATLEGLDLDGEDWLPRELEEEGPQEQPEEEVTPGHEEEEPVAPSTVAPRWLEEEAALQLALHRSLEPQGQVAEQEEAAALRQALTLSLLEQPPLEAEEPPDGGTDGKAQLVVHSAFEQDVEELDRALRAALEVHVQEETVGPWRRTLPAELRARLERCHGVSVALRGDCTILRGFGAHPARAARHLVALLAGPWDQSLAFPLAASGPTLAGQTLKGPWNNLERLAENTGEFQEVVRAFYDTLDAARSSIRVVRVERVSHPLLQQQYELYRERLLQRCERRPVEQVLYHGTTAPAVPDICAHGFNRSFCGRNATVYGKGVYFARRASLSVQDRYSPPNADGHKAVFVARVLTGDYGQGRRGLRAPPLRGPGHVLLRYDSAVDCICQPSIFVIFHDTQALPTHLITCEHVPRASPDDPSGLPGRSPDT
HDAC8: Histone deacetylase 8 (HDAC8, Homo sapiens, UniProt Q9BY41)
UniProt Q9BY41, sequence (whole entry, looked up): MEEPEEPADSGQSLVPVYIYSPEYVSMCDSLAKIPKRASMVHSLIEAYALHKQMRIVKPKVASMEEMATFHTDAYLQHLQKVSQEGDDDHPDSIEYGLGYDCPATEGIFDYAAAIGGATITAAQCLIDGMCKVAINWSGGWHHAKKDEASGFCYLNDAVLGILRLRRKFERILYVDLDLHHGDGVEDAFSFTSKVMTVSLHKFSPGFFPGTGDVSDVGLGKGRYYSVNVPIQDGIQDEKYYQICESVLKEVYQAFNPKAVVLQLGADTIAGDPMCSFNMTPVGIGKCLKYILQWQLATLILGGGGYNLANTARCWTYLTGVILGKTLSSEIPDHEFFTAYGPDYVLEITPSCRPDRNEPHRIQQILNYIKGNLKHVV
HDAC1: Histone deacetylase 1 (HDAC1, Homo sapiens, UniProt Q13547)
UniProt Q13547, sequence (whole entry, looked up): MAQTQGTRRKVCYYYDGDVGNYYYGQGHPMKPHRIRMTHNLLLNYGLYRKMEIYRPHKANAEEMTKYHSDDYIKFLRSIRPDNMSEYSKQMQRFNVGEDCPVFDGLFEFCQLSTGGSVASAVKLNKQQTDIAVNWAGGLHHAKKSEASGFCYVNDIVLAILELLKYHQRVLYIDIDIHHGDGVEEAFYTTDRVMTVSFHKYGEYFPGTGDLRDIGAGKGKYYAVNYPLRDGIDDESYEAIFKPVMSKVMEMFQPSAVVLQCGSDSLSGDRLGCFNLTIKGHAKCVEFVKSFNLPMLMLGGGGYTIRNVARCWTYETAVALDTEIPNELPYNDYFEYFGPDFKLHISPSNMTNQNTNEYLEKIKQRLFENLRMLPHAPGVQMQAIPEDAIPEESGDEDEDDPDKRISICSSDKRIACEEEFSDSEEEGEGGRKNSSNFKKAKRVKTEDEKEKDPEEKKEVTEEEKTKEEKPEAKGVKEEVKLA
UniProt Q8IU85, sequence (whole entry, looked up): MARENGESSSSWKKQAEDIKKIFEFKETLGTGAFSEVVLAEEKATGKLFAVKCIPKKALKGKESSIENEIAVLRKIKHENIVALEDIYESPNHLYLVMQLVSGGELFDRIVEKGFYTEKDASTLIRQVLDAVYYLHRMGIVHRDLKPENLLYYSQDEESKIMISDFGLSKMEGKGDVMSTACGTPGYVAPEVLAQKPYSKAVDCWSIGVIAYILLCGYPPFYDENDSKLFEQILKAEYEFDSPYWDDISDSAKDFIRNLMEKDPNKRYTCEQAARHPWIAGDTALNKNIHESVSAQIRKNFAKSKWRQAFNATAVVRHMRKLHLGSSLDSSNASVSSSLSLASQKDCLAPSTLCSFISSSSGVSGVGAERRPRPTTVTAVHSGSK

The pIC50 of `CC(C)c1cccc(C(C)C)c1N=C1C(=O)N(Cc2cccc(Cl)c2)c2ccccc21` is reported as 7.79 (PIK3CB; enzyme activity, inhibitor, ADP detection).
The pIC50 of `Cc1[nH]c(C)c(S(=O)(=O)Nc2cc(Cl)c(C(F)(F)F)c(Cl)c2)c1C(=O)N1CCC(F)(F)C1` is reported as 5.54 (DRD3; β-arrestin recruitment, antagonist).
The remaining binding of `C1=C/COCc2cc(ccc2OCCN2CCCC2)Nc2nccc(n2)-c2cccc(c2)COC/1` is reported as 19% (KIT (Homo sapiens, UniProt P10721, T670I/V559D); binding; 0.1 µM).
With `CC(C)c1cccc(C(C)C)c1N=C1C(=O)Nc2ccccc21` the pIC50 was 7.27 (PIK3CB; enzyme activity, inhibitor, ADP detection).
`Cc1cc(C(C)(C)C)ccc1OS(=O)(=O)Oc1cccc(C(=O)NO)c1` has a pIC50 of 5.45 (HDAC6; enzyme activity, inhibitor, fluorescence).
With `CCOC(=O)N1CCC(=C2c3ccc(Cl)cc3CCc3cccnc32)CC1` the pIC50 was 5.05 (CES2; enzyme activity, inhibitor, fluorescence; with preincubation).
`CCOC(=O)c1ccccc1-c1c2cc(Br)c(=O)c(Br)c-2oc2c(Br)c(O)c(Br)cc12` gave a pIC50 of 5.82 (ALOX15 (Homo sapiens, UniProt P16050); enzyme activity, inhibitor, absorbance).
`CNc1ncc2c(/C=C/C(=O)N3CCC(OC)CC3)nn(Cc3cccc(C(F)(F)F)c3)c2n1` has a remaining activity of 85% (CAMK1D (Homo sapiens, UniProt Q8IU85); enzyme activity, inhibitor, radiometric; 1 µM).
For `C=CC(=O)Nc1cc(Nc2nccc(-c3cn(C)c4ccccc34)n2)c(OC)cc1N(C)CCN(C)C`, the pIC50 was 4.25 (CES2; enzyme activity, inhibitor, fluorescence; with preincubation).
The pIC50 of `Cc1ccc(Cn2cc(-c3ccccc3C(N)=O)nn2)cc1` is reported as under 5.00 (PARP2; enzyme activity, inhibitor).
The pIC50 of `O=C(NO)c1cccc(OS(=O)(=O)Oc2ccc3c(c2)OCO3)c1` is reported as 6.99 (HDAC6; enzyme activity, inhibitor, fluorescence).
With `Fc1ccc(Cc2[nH]nc(-c3ccccn3)c2-c2ccnc3ccccc23)cc1` the pIC50 was < 5.40 and 5.15 (YCK2 (Candida albicans, UniProt A0A1D8PKB4); enzyme activity, inhibitor, ADP detection).
With `Cc1ccc(NS(=O)(=O)c2c(C)[nH]c(C)c2C(=O)N2CCC(F)(F)C2)cc1Cl` the pIC50 was 5.14 (DRD3; G protein activation, antagonist, BRET).
With `CC#CCn1c(N2CCC[C@@H](N)C2)nc2c1c(=O)n(Cc1nc(C)c3ccccc3n1)c(=O)n2C` the pIC50 was under 4.00 (CES2; enzyme activity, inhibitor, fluorescence; with preincubation).
With `O=c1[nH]c2c(nnn2Cc2ccccc2C(F)(F)F)c2ccc(F)cc12` the pIC50 was under 5.00 (PARP10; enzyme activity, inhibitor).
`O=C1/C(=C/c2ccccc2)Cc2ccccc21` gave a pIC50 of 4.91 (CES2; enzyme activity, inhibitor, fluorescence; with preincubation).
For `COc1cc(-c2cncc3c2CN(C)Cc2cc(N4CCNCC4)ccc2-3)cc(OC)c1OC`, the remaining activity was 115% (CDKL4 (Homo sapiens, UniProt Q5MAI5); enzyme activity, inhibitor; 1 µM).
With `Cc1ccc(CN2C(=O)C(=Nc3cccc(C)c3)c3ccccc32)cc1` the pIC50 was 7.52 (PIK3CB; enzyme activity, inhibitor, ADP detection).
The pIC50 of `Cc1cc(C)c(OS(=O)(=O)Oc2cccc(C(=O)NO)c2)c(C)c1` is reported as 6.61 (HDAC8; enzyme activity, inhibitor, fluorescence).
The Cmax of `O=C1CC[C@H](N2Cc3cc(N4CCN(CC5CCN(c6ccc([C@@H]7c8ccc(O)cc8CC[C@@H]7c7ccccc7)cc6)CC5)CC4)ccc3C2=O)C(=O)N1` is reported as 1190 ng/mL (male Sprague-Dawley rat, plasma; oral, 20 mg/kg, fasted).
For `Cn1nc2c(=O)n(C3CC3)cnc2c1[C@](O)(c1cnc(C(F)(F)F)c(Cl)c1)C(F)(F)F`, the pIC50 was ~4.30 and 4.31 (KCNH2 (Homo sapiens, UniProt Q12809); ion current, inhibitor, patch clamp; CHO).
For `[2H]C1([2H])CCC([2H])([2H])N1C(=O)c1c(C)[nH]c(C)c1S(=O)(=O)Nc1ccc(C(F)(F)F)c(Cl)c1`, the pIC50 was 5.66 (DRD3; G protein activation, antagonist, BRET).
`CN(C)c1ncnc2c1ncn2[C@@H]1O[C@H](CO)[C@@H](O)[C@H]1O` has a pEC50 of 5.27 (ADORA3 (Homo sapiens, UniProt P0DMS8, M174L); G protein activation, agonist).
For `O=C(NO)c1cccc(OS(=O)(=O)Oc2ccc(C(F)(F)F)cc2)c1`, the pIC50 was 5.91 (HDAC8; enzyme activity, inhibitor, fluorescence).
`Cc1[nH]c(C)c(S(=O)(=O)Nc2ccc(Cl)c(C(F)(F)F)c2)c1C(=O)N1CCCC1` gave a pIC50 of 5.47 (DRD3; β-arrestin recruitment, antagonist).
`CCCN(O)N=Nc1ccc(S(=O)(=O)Nc2nccs2)cc1` has an inhibition of 56.5% (ABTS scavenging; 180 µg/mL).
For `COc1cccc(OS(=O)(=O)Oc2cccc(C(=O)NO)c2)c1`, the pIC50 was 7.06 (HDAC8; enzyme activity, inhibitor, fluorescence).
With `Cc1[nH]c(C)c(S(=O)(=O)Nc2ccc(C(F)(F)F)c(Cl)c2Cl)c1C(=O)N1CCC(F)(F)C1` the pIC50 was 6.17 (DRD3; β-arrestin recruitment, antagonist).
With `CCCCCOc1ccc2ccc(C(=O)N[C@@H](CCCNC(=N)CCl)C(=O)NCc3ccccc3)cc2c1` the pIC50 was ~6.05 and 6.04 (PADI4 (Homo sapiens, UniProt Q9UM07); enzyme activity, inhibitor, fluorescence; with preincubation).
`COc1cc2ncnc(Nc3ccc4c(c3)/C(=C/c3ccccc3)C(=O)N4)c2cc1OC` has a pIC50 of 7.00 (PIK3CB; enzyme activity, inhibitor, ADP detection).
For `NC(=O)c1ccc(C(=O)NOCc2ccc3sc4ccccc4c3c2)cc1`, the pIC50 was 5.78 (SIRT6 (Homo sapiens, UniProt Q8N6T7); enzyme activity, inhibitor, fluorescence).
With `O=C(/C=C/c1cccc(OS(=O)(=O)Oc2ccccc2)c1)NO` the pIC50 was 6.14 (HDAC1; enzyme activity, inhibitor, fluorescence).
With `CCN(CC)S(=O)(=O)c1c(C)[nH]c(C)c1C(=O)Nc1ccc(C(F)(F)F)c(Cl)c1` the pIC50 was under 5.00 (DRD3; G protein activation, antagonist, BRET).
With `COc1cc2c(cc1OC)C(=O)/C(=C/c1cccc(C)c1)C2` the pIC50 was 5.49 (CES2; enzyme activity, inhibitor, fluorescence; with preincubation).
With `O=C(NO)c1cncc(OS(=O)(=O)Oc2ccc(-n3ccnc3)cc2)c1` the pIC50 was 6.00 (HDAC1; enzyme activity, inhibitor, fluorescence).
`Cc1[nH]c(C)c(S(=O)(=O)Nc2ccc(C(F)(F)F)c(Cl)c2)c1C(=O)N1CCC(C#N)C1` (centres unmarked) gave a pIC50 of 5.09 (DRD3; G protein activation, antagonist, BRET).
For `NC(=O)c1ccc[n+]([C@@H]2O[C@H](COP(=O)([O-])OP(=O)(O)OC[C@H]3O[C@@H](n4cnc5c(N)ncnc54)[C@H](O)[C@@H]3O)[C@@H](O)[C@H]2O)c1`, the pIC50 was 5.52 and 5.54 (PARP1 (Homo sapiens, UniProt P09874); enzyme activity, inhibitor).
For `COc1cc2c(cc1OC)C(=O)/C(=C/c1ccc(O)c(F)c1)C2`, the pIC50 was under 4.00 (CES2; enzyme activity, inhibitor, fluorescence; with preincubation).
`CCCCC(=O)Nc1ccc(-c2ccc3ncn(CCC)c(=O)c3c2)cn1` gave a remaining binding of 100% (KIT (Homo sapiens, UniProt P10721, D816H); binding, competition with immobilised ligand; 0.5 µM).
`CC(C)C[C@H](NC(=O)c1cnccn1)C(=O)N[C@@H](C)C(=O)N[C@H](/C=C/S(C)(=O)=O)Cc1ccc(CN)cc1` gave a pIC50 of under 5.00 (PSMB8 (Homo sapiens, UniProt P28062); enzyme activity, inhibitor; lysate).
The pIC50 of `O=c1[nH]c2c(nnn2-c2ccccc2)c2ccc(F)cc12` is reported as under 5.00 (PARP2; enzyme activity, inhibitor).
The pIC50 of `C=CCN1C(=O)C(=Nc2cccc(C)c2)c2ccccc21` is reported as 6.08 (PIK3CB; enzyme activity, inhibitor, ADP detection).
`C=CC(=O)N1CCC(COCC(=O)N2CCN(c3nc(-c4cnc(N)nc4C(F)F)nc(N4CCOC[C@@H]4C)n3)CC2)CC1` gave a remaining binding of 100% (ROCK1 (Homo sapiens, UniProt Q13464); binding, competition with immobilised ligand; 1 µM).
For `Cc1[nH]c(C)c(S(=O)(=O)Nc2ccc(C(F)(F)F)c(Cl)c2)c1C(=O)NCC(F)F`, the pIC50 was 5.12 (DRD3; β-arrestin recruitment, antagonist).
With `O=c1[nH]c2c(nnn2C2CCCCC2)c2ccc(F)cc12` the pIC50 was under 5.00 (PARP10; enzyme activity, inhibitor).
For `Cc1noc(NS(=O)(=O)c2ccc(N=NN(C)O)cc2)c1C`, the inhibition was 64.1% (ABTS scavenging; 120 µg/mL).
The remaining binding of `Cc1cc([C@@H](C)Nc2ccccc2C(=O)O)c2nc(N3CCC(F)(F)CC3)c(C#N)c(=O)n2c1` is reported as 83% (AXL (Homo sapiens, UniProt P30530); binding, competition with immobilised ligand; 10 µM).
`O=C(NO)c1cncc(OS(=O)(=O)Oc2ccc3ccccc3c2)c1` gave a pIC50 of 5.85 (HDAC1; enzyme activity, inhibitor, fluorescence).
For `COc1cc2ncnc(N(C)c3ccc4c(c3)/C(=C/c3ccccc3)C(=O)N4C)c2cc1OC` (mixture of isomers), the pIC50 was 6.46 (PIK3CB; enzyme activity, inhibitor, ADP detection).
`Cc1cc(Oc2ncccc2CN2CCN(c3ccc(C(F)(F)F)cn3)CC2)ccc1-c1c(C)c(=O)[nH]c(=O)n1C` has a pKi of 5.51 (ADRA2B (Homo sapiens, UniProt P18089); ligand displacement, radioligand).
